# Measurements from different studies.
# Every numbered part comes from another study and shows a few of its results, in no order.

# Sample 1
# Target: Histone acetyltransferase KAT6A, winged helix 2, GST fusion (KAT6A, Homo sapiens, UniProt Q92794, residues 85-181)
# Method: protein binding microarray
# Molecule type: double-stranded DNA, one strand shown
# Medium: in vitro
# Tested at: not given
# Setting: 8-mer, flanks averaged, mean of 2 arrays, mostly near background
# Relative to: not given
# Direction: higher = stronger binding
# Residues (chain): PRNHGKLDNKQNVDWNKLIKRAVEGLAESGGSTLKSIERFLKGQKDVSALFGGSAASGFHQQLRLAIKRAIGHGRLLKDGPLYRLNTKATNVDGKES
Sequence,E-score
CAATTGAA,-0.155
AACGCTAC,-0.194
AGGTTTAC,-0.113
TCTCTTAA,-0.0513
CGGGTAGC,0.143
GCCTATGA,-0.0624
AGGTTTTC,-0.0127
CGGCGGAC,0.222
CTTTAATA,0.0916

# Sample 2
# Target: RNA binding protein fox-1 homolog 2, RRM domain, GST-SBP tag (RBFOX2, Homo sapiens, UniProt O43251-10, residues 100-194)
# Method: RNA Bind-n-Seq
# Molecule type: RNA
# Medium: in vitro
# Tested at: 365 nM
# Setting: natural RNA segment, single round, ends assumed
# Relative to: no-protein control
# Direction: higher = stronger binding
# Shared flanks, not repeated: GGGAGUUCUACAGUCCGACGAUC … UGGAAUUCUCGGGUGCCAA
# Target sequence (chain): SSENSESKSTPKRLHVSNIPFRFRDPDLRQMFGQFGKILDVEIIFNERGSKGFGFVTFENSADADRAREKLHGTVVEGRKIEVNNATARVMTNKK
Sequence,RBNS enrichment (R)
GGAGGGUUCUAGUCUGUGCAAACAUUAAUAAAAAUUAUUUUGAAUUUUAGGAUUUUAAAAUGGUUGAAUUAAUUUAAAAUUGUCUUAAUUCUACUCUUAAUACUUCACUG,0.459
CUCUCCUGUCUAUACAUACACACCUACUGAAUAGAAGCCUAGCUGACAGUCUCUGAAUAGUGGUUUUUCUAAUAAGAUGAGAUUUUUUUCUCUUGGGAAGUCACCUGUGA,0.595
AGUGCAGUCGAGUUGUCUGGCCAUCUGUAUUUGGAUCUAUAACUGUACUUUGCCUGGCGCUGUGCGCAAGGUCAGAAAACUUACUGCUAGUACCUAGAAACACACAAGGC,1.05
ACCAAACACCAGAGGCUGUUAAUUGUGGGUGGUGCUGUCAGUGUUCCUGACGGCUAUGUGUGUAUUUUAAUGGGGUUUGUCCUCAUCCACAAAUAAUUAUUUUUUUGUUA,1.01
CUUUUCUCCUUCUGUCCCUUUUCUCAAAAGCAUCUUUCCCCCAAAUGUAUGUCUCUAGGACAUUUUAUAGUUUUAAGAGGAAGAAAACAGAAACGUGGCAUCAUUUGGGA,0.343
GCAGGCAAGAACUCAGACAUGCCCAGCCUAGCCCAGGGCGGCCUGCAUCUGGCCCCAGAAGCCUCCUCACCUGGACUGGCACAACUUCGGUUGGGGAAACAGAAGCUGAG,0.898
CCUUUCCCUCCCUGGGCCUCAGUUUCCCCAUCUCCCAAAUGGGAGGAGGAGCCGGAUUGGGUUAUUUCUUAGGGAUUCUCUUUGUGUGCCUUGCUGGCUUCCAGACCUGC,0.883
UUAUGAGUAGAAGCAAUAAGAAGGUGUCCUUAUGGUCUUAGGAAUAAUAGUUCCAAUGUAUUGGCAUAAUUUGUUUGAAUGUCUUUAUUUUGAUAUUAACACCGGCAUAA,0.837

# Sample 3
# Target: Prothrombin, mature alpha-thrombin (F2, Homo sapiens, UniProt P00734)
# Method: aptamer microarray, sandwich
# Molecule type: DNA with 2'F-ANA
# Medium: in vitro
# Tested at: 200 nM
# Setting: whole 15-mer aptamer, many near background
# With: Cy3 exosite-II aptamer, 400 nM
# Direction: higher = stronger binding
# Sequence: GGTTGGTGTGGTTGG
Modification,mean fluorescence intensity [a.u.]
2'F-ANA at 5 6 8 9 10 12 13 14,51.3
2'F-ANA at 2 3 6 7 8 14 15,395
2'F-ANA at 1 2 4 5 9 10 11 13 15,49.2
2'F-ANA at 3 5 6 7 9 12 13,141
2'F-ANA at 2 4 5 7 8 14 15,50.9
2'F-ANA at 2 3 8 12 13 15,908
2'F-ANA at 1 4 6 8 9 10 14 15,49.8
2'F-ANA at 1 2 3 5 6 8 9 10 11 12 14,48.4

# Further values, each from its own experiment
Substance,target,assay,system,setting,scale,measurement,value
"PhoQ, residues 284 288 289 292 302 303 SMMNNA","PhoP, residues 12 14 15 18 19 TQAML (Escherichia coli, UniProt P23836)","Sort-seq, item: YFP reporter",E. coli,"PhoQ-PhoP variant library, with: 10 µM Mg2+","relative to: high Mg2+ state, higher = stronger signaling",fold induction,21.2

# Repeated from above (sample 1):
Sequence,E-score
AACGCTAC,-0.194
